# Results from different studies.
# Each line is one published result; not all experiments were run side by side. Values joined by “and” are separate records of one study, mostly repeats; a detail may differ. ± marks the error that the study gave.
SMILES,assay,system,setting,how to read,quantity,result
[Cl-].[Cl-].[Pt+2].[Ru+2].c1ccc(-c2nc3ccccc3nc2-c2ccccn2)nc1.c1cnc2c(c1)ccc1cccnc12.c1cnc2c(c1)ccc1cccnc12,"chloride substitution, UV-vis kinetics",aqueous buffer,"concentration not given, pH 7.2, first substitution step, with: thiourea",,negative activation entropy,166 ± 4 J/(mol·K)
CC#Cc1cncc(-c2ccc3c(c2)[C@@]2(N=C(C)C(N)=N2)[C@]2(CC[C@H](OC)CC2)C3)c1,CSF Aβ40 reduction,beagle dog,"oral, CSF concentration basis",,IC50,3.8 nM
N#Cc1ccc2c(c1)[C@H]1CCCN(C(=O)c3ccc4[nH]cnc4c3)[C@H]1C2,,"T2DM patients with overweight or obesity, urine","oral, 10 mg, day 1, 0-24 h, multiple dosing, adjusted geometric mean","reference: baseline day -1, -24-0 h",total urinary corticosteroid excretion,155%
O=C1N(Cc2ccccc2Cl)c2ccccc2C12NN=C(c1ccccc1)S2 (stereo not drawn),,"SK-BR-3 xenograft, mouse","intravenous, 867 mg/kg total, subcutaneous xenograft",reference: vehicle,T/C,28%
CC(C)C[C@@H](NC(=O)[C@H](C)NC(=O)CNC(=O)[C@@H](NC=O)C(C)C)C(=O)N[C@@H](C)C(=O)N[C@@H](C(=O)N[C@H](C(=O)N[C@@H](C(=O)N[C@@H](Cc1c[nH]c2ccccc12)C(=O)N[C@H](CC(C)C)C(=O)N[C@@H](Cc1c[nH]c2ccccc12)C(=O)N[C@H](CC(C)C)C(=O)N[C@@H](Cc1c[nH]c2ccccc12)C(=O)N[C@H](CC(C)C)C(=O)N[C@@H](Cc1c[nH]c2ccccc12)C(=O)NCCO)C(C)C)C(C)C)C(C)C,"H+/Na+ transport, pyranine pH-gradient",EYPC/EYPG LUVs 19:1,,,EC50,4.29 ± 0.32 nM
C[C@H](CS)C(=O)N1CCC[C@H]1C(=O)O,,"mouse, unilateral ureteral obstruction, right kidney (control)",dose not given,,fibrosis area,0.48% and 2.13% and 0.73% and 1.28% and 0.83% and 1.15%
COc1cc(-c2ccccc2)ncc1C(=O)Nc1ccc2c(=O)[nH]c(-c3ccc(C(C)(C)O)cc3)nc2c1,"RNA-seq GSEA, measured: HALLMARK_FATTY_ACID_METABOLISM","organoids, small intestinal, Apc Q1405X, mouse","dose not given, 3 days, knockout organoids","reference: DMSO, direction not given",normalized enrichment score,2.12
CO[C@H]1CC[C@H](N2C(=O)CNc3ncc(-c4ccc(C(C)(C)O)nc4)nc32)CC1,flow cytometry,"stimulated B cells, human, blood","60 mg single dose, 24 h, mean",reference: baseline,pS6RP change from baseline,14.3%
N#Cc1ccn2c(-c3ccncc3)c(-c3ccc(F)cc3)nc2c1,"kinase binding, competitor, MIB/MS competition, measured: FPK1",Candida albicans cell lysate,1 µM,reference: DMSO,log2 fold change,-0.0993
N#Cc1ccc(C(c2ccc(C#N)cc2)n2cncn2)cc1,ELISA,"human patients, tumour homogenate",5 mg daily,,estradiol concentration,793 ± 74.1 pg/mL
O=c1cc(-c2ccc(O)cc2)oc2c([C@@H]3OC[C@H](O)[C@H](O)[C@H]3O)c(O)c([C@@H]3O[C@H](CO)[C@@H](O)[C@H](O)[C@H]3O)c(O)c12,RT-qPCR,"HFpEF mice, AngII-treated, heart",dose not given,reference: AngII alone,BNP mRNA level,decreased
O[C@H]1CCCN[C@@H]1CCCn1cnc2c(Cl)c(Cl)ccc21,"ELISA, measured: Pro-C3","healthy human volunteers, serum","intraduodenal, 100 mg twice daily, day 14, multiple ascending dose",,AUC(0-tau),107 ng·h/mL
Cc1cn(-c2ccc3n(c2=O)CCN([C@@H](C)[C@@H]2CC[C@H](c4cc(F)c(Cl)cc4C(F)(F)F)O2)C3=O)cn1,measured: amyloid beta 38,"human, non-elderly, cerebrospinal fluid","40 mg once daily, 14 days, sampled 336 h",reference: placebo,change from baseline,11.2%
O=C(O)CNC(=O)Cc1ccccc1,,"ventricular cardiomyocytes, C57BL/6 mouse","dose not given, 0.68 s",,sarcomere length,1.72 µm
OC(CCN1CCCCC1)(c1ccccc1)C1CC2C=CC1C2 (stereo not drawn),resting-state EEG,healthy elderly humans,"oral, 2 mg, eyes open, LS mean",,EEG Beta1-power Pz-O2,3.7 µV²
C[C@H](Oc1ccc(Br)cc1-c1ccon1)C(=O)O,first response latency,"human, tibialis anterior muscle","100 mg, 30 Hz, single ascending dose",,difference from placebo,-0.112%
N#Cc1ccc2c(-c3ccncc3)c(-c3ccc(F)cc3)nn2c1,"kinase binding, competitor, MIB/MS competition, measured: YPK1",Candida albicans cell lysate,1 µM,reference: DMSO,log2 fold change,0.00977
CSCCNc1nc(SCCC(F)(F)F)nc2c1ncn2[C@@H]1O[C@H](COP(=O)(O)OP(=O)(O)C(Cl)(Cl)P(=O)(O)O)[C@@H](O)[C@H]1O,"ADP-induced platelet aggregation, Multiplate","human patients, whole blood",1 h,,platelet aggregation,25.9 ± 13.6 U
CC[C@@H]1[C@H](F)C(=O)N[C@@H]1COc1nccc2cc(C(N)=O)c(OC)cc12,"ATP-site probe binding, ActivX profiling, measured: MARK1, MARK2",THP-1 cell lysate,"0.01 mM, Lys1 site",,inhibition,-5.4%
C=C1CC[C@H](OCCCNC(=O)CCOCCOCCOCCOCCOCCOCCOCCOCCOCCOCCOCCOCCOCCOCCOCCOCCOCCOCCOCCOCCOCCOCCOCCOCCOCCOCCOCCOCCOCCOCCOCCOCCOCCOCCOCCOCCNC(=O)CCN2C(=O)CC(SC[C@H](NC(=O)[C@H](CCCNC(=N)N)NC(=O)[C@@H]3CCCN3C(=O)[C@H](CCC(N)=O)NC(=O)[C@H](CC(C)C)NC(=O)[C@H](CCCCN)NC(=O)[C@H](C)NC(=O)[C@@H]3CCCN3C(=O)[C@@H]3CCCN3C(=O)[C@H](CCCCN)NC(=O)[C@H](CCCCN)NC(=O)[C@H](CO)NC(=O)[C@H](CCC(=O)O)NC(=O)[C@H](CCCCN)NC(=O)[C@H](CCCNC(=N)N)NC(=O)[C@H](CCC(N)=O)NC(=O)[C@H](CCC(N)=O)NC(=O)[C@@H](NC(=O)[C@H](CCCNC(=N)N)NC(=O)[C@H](CCC(N)=O)NC(=O)[C@H](Cc3c[nH]cn3)NC(=O)[C@H](CCC(=O)O)NC(=O)[C@@H]3CCCN3C(=O)[C@H](CO)NC(=O)[C@H](CC(C)C)NC(=O)[C@H](Cc3ccccc3)NC(=O)[C@H](CNC(=O)CCCCCCC)NC(=O)[C@H](CO)NC(=O)CN)C(C)C)C(=O)O)C2=O)C/C1=C/C=C1\CCC[C@]2(C)[C@@H]([C@H](C)CCCC(C)(C)O)CC[C@@H]12 (stereo partly drawn),,"C57BL/6J mice, LLC tumour-induced cachexia","subcutaneous, 0.25 mg/kg daily, 2 weeks",reference: tumour-bearing vehicle,food intake decrease,5%
COc1nc(-c2cc(C)c(N[C@@H](C)c3cc(F)cc(F)c3)nn2)ccc1-n1cnc(C)c1,measured: Aβ40,"rat Sprague-Dawley male, brain","oral, 25 mg/kg daily for 9 days, 4 h after dose",reference: vehicle,change in level,66%
COc1ccc2c(c1)CC[C@@H]1[C@@H]2CC[C@]2(C)[C@@H](NCCCCCCN3C(=O)C=CC3=O)CC[C@@H]12,immunostaining,"humanized mouse, SAH model, meningeal F4/80+ macrophages",dose not given,,p-PKA level,8.21 MFI and 4.79 MFI and 6.79 MFI
O=C(O)c1ccc(-n2cc(CNc3cc(Br)cc(C(F)(F)F)c3)c(-c3ccc(F)c(F)c3)n2)cc1,,"Caenorhabditis elegans, S. aureus infected","4 µg/mL, 5 days",,survival,~85%
[Cl-].[Cl-].[Pt+2].[Ru+2].c1ccc(-c2nccnc2-c2ccccn2)nc1.c1cnc2c(c1)ccc1cccnc12.c1cnc2c(c1)ccc1cccnc12,"chloride substitution, UV-vis kinetics",aqueous buffer,"concentration not given, pH 7.2, first substitution step, with: thiourea",,negative activation entropy,155 ± 6 J/(mol·K)
Cn1cc(-c2ccc(-c3cncc(Cl)c3N3CCC4(CCNC4=O)CC3)cc2)cn1,tumour weight,mouse SW-620 xenograft,70 mg/kg bid,,T/C,30%
Cc1cc(-c2nc(C(=O)Nc3cc4oc(N5CCOCC5)nc4nc3N3CC[C@@H](O)C3)co2)ccn1,"3D immunohistochemistry, CLARITY, measured: phospho-ERK1/2","mouse, intracranial A20 tumour",dose not given,reference: total cells,pERK1/2 positive cells,5.3%
CCN(Cc1nc2c(N)nc3cc(-c4cc[nH]n4)ccc3c2[nH]1)C(C)=O,"Luminex, measured: G-CSF","cancer patients, serum","2000 µg monotherapy, first 24 h",reference: baseline,fold change,21
NC(=O)c1cnc2[nH]ccc2c1N[C@@H]1[C@@H]2CC3C[C@H]1C[C@@](O)(C3)C2,flow cytometry,"Japanese healthy men, blood","oral, 100 mg twice daily, 72 h after day 7 dose",reference: baseline,CD8+ central memory change,-0.33%
COc1ccc(-c2cncc(N[C@@H](C)c3cccc(NC(=O)c4cncc(C)c4)c3)n2)cc1OC,measured: rno-miR-410-3p,"rat SU5416/hypoxia model, lung",dose not given,reference: SU5416/hypoxia vehicle,fold change,3.5
Cc1c(NC(=O)c2cccnc2)c(=O)n(-c2ccccc2)n1C,echocardiography,Dmd C3333Y mouse,dose not given,,ejection fraction,56.4% and 58.2% and 59.1% and 52.5% and 55.7%
C[C@@H](O)CCOC(=O)C[C@@H](C)O,,human,"oral drink, dose not given, 90 min post dose, median, all participants",,plasma NEFA,0.2 mM
Cc1ccc(C(=O)Nc2ccnc(S(N)(=O)=O)c2)c(N2CCCC(F)(F)CC2)n1,,"Macaca mulatta, C-nociceptors","intravenous, 0.6 mg/kg bolus then 0.8 mg/kg/h, 60 min",,conduction velocity,100 ± 1.19 % baseline
c1ccc(-c2n[nH]cc2-c2ccnc3ccccc23)nc1,"kinase binding, competitor, MIB/MS competition, measured: MCK1",Candida albicans cell lysate,1 µM,reference: DMSO,log2 fold change,1.25
Cc1ccc([C@@H]2O[C@H](CO)[C@@H](O)[C@H](O)[C@H]2O)cc1Cc1ccc(-c2ccc(F)cc2)s1,,Japanese type 2 diabetes patients,"400 mg, day 1",reference: day 0,"change, mean 24 h, plasma glucose",-43 mg/dL
CC(C)[C@H](C(=O)Nc1ccc(C(=O)NO)cc1)c1ccccc1,MRI volumetry,"human, right IAC schwannoma","dose not given, day 2790 post-treatment",,tumour volume,0.0665 cm³
CN[C@@H]1COc2c(S(=O)(=O)NC(=O)Nc3c4c(cc5c3CCC5)CCC4)cnn2C1,measured: IL-1β,"human participants, whole blood ex vivo","900 mg twice daily, multiple doses, 48 h, with: LPS/ATP",reference: baseline,inhibition,99.5%
C=CCn1c(=O)c2cnc(Nc3ccc(N4CCN(C)CC4)cc3)nc2n1-c1ccc2c(n1)[C@@](O)(CC)CC2,,"NCI-H1755, NOD/SCID mice, xenograft","oral, 80 mg/kg once daily, day 28",reference: vehicle,tumour growth inhibition,89.6%
C[C@H]1C[C@H]2CSC(N)=N[C@@]2(c2nc(NC(=O)c3ccc(OC(F)F)cn3)cs2)CO1,measured: Aβ1-40,"healthy adults, plasma","3 mg single dose, 8 h post-dose",reference: placebo,percent change from baseline,-50.5%
Cn1cc(Nc2nccc(-c3ccc4c(c3)CN(C3COC3)CC[C@H]4NC(=O)c3cn(C(C)(C)C)nn3)n2)cn1,measured: inflammasome pathway,"splenic B cells, mice","30 mg/kg, IgD-activated in vivo","reference: vehicle, direction not given",pathway activation z-score,2

# Excerpt of the above:
SMILES,assay,system,setting,how to read,quantity,result
C[C@@H](O)CCOC(=O)C[C@@H](C)O,,human,"oral drink, dose not given, 90 min post dose, median, all participants",,plasma NEFA,0.2 mM
Cc1ccc(C(=O)Nc2ccnc(S(N)(=O)=O)c2)c(N2CCCC(F)(F)CC2)n1,,"Macaca mulatta, C-nociceptors","intravenous, 0.6 mg/kg bolus then 0.8 mg/kg/h, 60 min",,conduction velocity,100 ± 1.19 % baseline
c1ccc(-c2n[nH]cc2-c2ccnc3ccccc23)nc1,"kinase binding, competitor, MIB/MS competition, measured: MCK1",Candida albicans cell lysate,1 µM,reference: DMSO,log2 fold change,1.25
Cc1ccc([C@@H]2O[C@H](CO)[C@@H](O)[C@H](O)[C@H]2O)cc1Cc1ccc(-c2ccc(F)cc2)s1,,Japanese type 2 diabetes patients,"400 mg, day 1",reference: day 0,"change, mean 24 h, plasma glucose",-43 mg/dL
CC(C)[C@H](C(=O)Nc1ccc(C(=O)NO)cc1)c1ccccc1,MRI volumetry,"human, right IAC schwannoma","dose not given, day 2790 post-treatment",,tumour volume,0.0665 cm³
